Published values collected from several papers.
Protocols differ between the studies behind these lines. ± gives the spread as reported.

The mood rating of `CNC(C)Cc1ccc2c(c1)OCO2` (racemic) is reported as 36.3 (visual analog scale, refers to: Stimulated; human; oral, 1.5 mg/kg, mean over session, unit not given; relative to: pre-dose baseline).
The paw-withdrawal latency of `CN1CC[C@]23c4c5ccc(O)c4O[C@H]2[C@@H](O)C=C[C@H]3[C@H]1C5` is reported as 13.1 ± 2.5 s (thermal hyperalgesia; Sprague-Dawley rat, male, incisional pain; subcutaneous, 5 mg/kg, 2 h).
For `CCCCCn1cc(C(=O)NC(C(N)=O)C(C)(C)C)c2ccccc21` (stereo not shown), “onset of locomotor depression” read ≤ 10 min (male ND4 Swiss-Webster mice; intraperitoneal, 0.5 to 2.5 mg/kg).
`CCCCn1cc(C(=O)c2cccc3ccccc23)c2ccccc21` — result for “lowest dose with significant effect”: 1 to 3 mg/kg (handling reactivity, functional observational battery; ICR mice, male; iv; relative to: vehicle).
`CCC1(c2ccccc2)C(=O)NC(=O)NC1=O`: “minimal effective dose” 30 mg/kg (seizure protection; albino mouse, scPTZ-induced seizure; ip, 0.5 h).
`CCCCCc1cc(O)c2c(c1)OC(C)(C)[C@@H]1CCC(C)=C[C@@H]21` gave an ED50 of 5.21 mg/kg (hypothermia; ICR mice, male, rectal temperature; intraperitoneal).
For `CCCCCc1cc(O)c2c(c1)OC(C)(C)[C@@H]1CCC(C)=C[C@@H]21`, “lowest dose with significant effect” read 1 mg/kg (handling reactivity, functional observational battery; ICR mice, male; iv; relative to: vehicle).
`CC[C@@H]1CN2CC[C@]3(Nc4cccc(OC)c4C3=O)[C@@H]2C[C@@H]1/C(=C\OC)C(=O)OC`: antinociception “decreased” (tail withdrawal; MOR knockout mouse C57BL/6J; subcutaneous, 3 mg/kg; relative to: wild type).
For `COc1ccc2cc3[n+](cc2c1OC)CCc1cc2c(cc1-3)OCO2`, the catalase activity was 33 ± 1.21 U/mg protein (rat, STZ-induced diabetic, liver; oral, 12 mg/kg, day 28).
`NC(=O)C[S+]([O-])C(c1ccccc1)c1ccccc1` (racemic): “audible vocalisation duration” “inhibited” (mouse, C57BL/6, female, EAE; dose not given, day 24, with: noxious paw pressure; relative to: vehicle).
`CC[C@@H](C(N)=O)N1CCCC1=O` gave a seizure-free animals of 50% (hyperthermia-induced seizures; Scn1a+/- mouse; intraperitoneal, 10 mg/kg).
For `CCCCCc1cc(O)c2c(c1)OC(C)(C)[C@@H]1CCC(C)=C[C@@H]21`, “onset of locomotor depression” read 10 to 20 min (male ND4 Swiss-Webster mice; intraperitoneal, 10 and 25 mg/kg).
`NC1(c2ccccc2Cl)CCC=CC1=O` (stereo not shown) gave a Vmax of 437 pmol/min/mg protein (metabolite formation, metabolite; pooled human liver microsomes; 30 min, 37 °C, with: (S)-norketamine substrate).
For `Cc1ccc(/C=C/C(=O)N[C@@]23CCC(=O)[C@@H]4Oc5c(O)ccc6c5[C@@]42CCN(CC2CC2)[C@@H]3C6)cc1`, “paw withdrawal latency” read “no effect” (rat; intraplantar, 0.25 µg/50 µL).
`CCC1(c2ccccc2)C(=O)NC(=O)NC1=O` has a seizure-free animals of 100% (hyperthermia-induced seizures; Scn1a+/- mouse; intraperitoneal, 15 mg/kg).
For `O=C(c1cccc2ccccc12)c1cn(CCCCCF)c2ccccc12`, “lowest dose with significant effect” read 0.1 to 1 mg/kg (handling reactivity, functional observational battery; ICR mice, male; iv; relative to: vehicle).
`CCCCCn1cc(C(=O)c2ccc(C)c3ccccc23)c2ccccc21`: “onset of locomotor depression” ≤ 40 min (male ND4 Swiss-Webster mice; intraperitoneal, 0.5 and 1 mg/kg).
`COC(=O)[C@H]1[C@@H](OC(=O)c2ccccc2)C[C@@H]2CC[C@H]1N2C`: “extracellular dopamine level” 165% (in vivo microdialysis; rat, nucleus accumbens shell; intraperitoneal, 3.0 mg/kg, 0 to 30 min after dosing, mean over place-conditioning session; relative to: baseline).
For `CN1CC[C@]23c4c5ccc(O)c4O[C@H]2[C@@H](O)C=C[C@H]3[C@H]1C5`, “paw withdrawal latency” read 12.9 ± 1.38 s (Hargreaves test; rat, carrageenan paw inflammation; 1 mg/kg, 10 min).

Some of these lines once more:
`CC[C@@H]1CN2CC[C@]3(Nc4cccc(OC)c4C3=O)[C@@H]2C[C@@H]1/C(=C\OC)C(=O)OC`: antinociception “decreased” (tail withdrawal; MOR knockout mouse C57BL/6J; subcutaneous, 3 mg/kg; relative to: wild type).
For `COc1ccc2cc3[n+](cc2c1OC)CCc1cc2c(cc1-3)OCO2`, the catalase activity was 33 ± 1.21 U/mg protein (rat, STZ-induced diabetic, liver; oral, 12 mg/kg, day 28).
`NC(=O)C[S+]([O-])C(c1ccccc1)c1ccccc1` (racemic): “audible vocalisation duration” “inhibited” (mouse, C57BL/6, female, EAE; dose not given, day 24, with: noxious paw pressure; relative to: vehicle).
